{"data": "Assay results pooled from the literature", "note": "Numbered parts are unrelated; each lists some results of a single study. Several values in a cell are separate wells, animals, samples, runs or records.", "sequence of UniProt P68400 (whole entry, looked up)": "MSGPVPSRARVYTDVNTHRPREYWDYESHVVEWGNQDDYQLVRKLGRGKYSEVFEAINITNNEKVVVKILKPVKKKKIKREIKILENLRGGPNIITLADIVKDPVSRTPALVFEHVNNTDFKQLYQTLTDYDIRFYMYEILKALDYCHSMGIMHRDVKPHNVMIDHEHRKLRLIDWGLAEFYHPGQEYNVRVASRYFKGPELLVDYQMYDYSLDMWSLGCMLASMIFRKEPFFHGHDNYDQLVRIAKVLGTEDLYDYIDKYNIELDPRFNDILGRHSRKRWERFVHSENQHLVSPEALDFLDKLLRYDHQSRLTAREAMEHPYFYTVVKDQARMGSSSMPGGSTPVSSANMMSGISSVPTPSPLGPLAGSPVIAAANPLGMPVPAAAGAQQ", "sequence of UniProt P07332 (whole entry, looked up)": "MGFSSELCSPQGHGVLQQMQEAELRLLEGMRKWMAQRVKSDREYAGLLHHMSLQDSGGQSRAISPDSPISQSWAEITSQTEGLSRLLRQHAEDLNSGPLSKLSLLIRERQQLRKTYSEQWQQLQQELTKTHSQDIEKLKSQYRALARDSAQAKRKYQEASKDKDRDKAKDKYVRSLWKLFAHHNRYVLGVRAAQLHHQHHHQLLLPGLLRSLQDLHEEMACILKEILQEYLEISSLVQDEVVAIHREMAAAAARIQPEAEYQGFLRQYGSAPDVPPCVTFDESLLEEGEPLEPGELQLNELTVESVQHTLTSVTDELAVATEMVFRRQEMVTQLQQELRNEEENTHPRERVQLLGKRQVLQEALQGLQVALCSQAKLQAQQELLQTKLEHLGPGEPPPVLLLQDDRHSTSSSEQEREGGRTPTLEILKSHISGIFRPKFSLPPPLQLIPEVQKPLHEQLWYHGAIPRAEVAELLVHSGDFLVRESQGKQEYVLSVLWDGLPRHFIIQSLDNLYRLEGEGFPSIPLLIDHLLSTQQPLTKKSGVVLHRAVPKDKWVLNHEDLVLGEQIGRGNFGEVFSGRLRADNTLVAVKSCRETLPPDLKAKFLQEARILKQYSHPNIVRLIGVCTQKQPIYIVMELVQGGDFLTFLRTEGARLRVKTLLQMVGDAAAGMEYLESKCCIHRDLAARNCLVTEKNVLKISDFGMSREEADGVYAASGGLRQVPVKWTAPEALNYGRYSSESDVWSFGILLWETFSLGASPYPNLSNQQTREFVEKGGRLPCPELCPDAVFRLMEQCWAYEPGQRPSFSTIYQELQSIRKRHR", "sequence of UniProt Q9NQU5 (whole entry, looked up)": "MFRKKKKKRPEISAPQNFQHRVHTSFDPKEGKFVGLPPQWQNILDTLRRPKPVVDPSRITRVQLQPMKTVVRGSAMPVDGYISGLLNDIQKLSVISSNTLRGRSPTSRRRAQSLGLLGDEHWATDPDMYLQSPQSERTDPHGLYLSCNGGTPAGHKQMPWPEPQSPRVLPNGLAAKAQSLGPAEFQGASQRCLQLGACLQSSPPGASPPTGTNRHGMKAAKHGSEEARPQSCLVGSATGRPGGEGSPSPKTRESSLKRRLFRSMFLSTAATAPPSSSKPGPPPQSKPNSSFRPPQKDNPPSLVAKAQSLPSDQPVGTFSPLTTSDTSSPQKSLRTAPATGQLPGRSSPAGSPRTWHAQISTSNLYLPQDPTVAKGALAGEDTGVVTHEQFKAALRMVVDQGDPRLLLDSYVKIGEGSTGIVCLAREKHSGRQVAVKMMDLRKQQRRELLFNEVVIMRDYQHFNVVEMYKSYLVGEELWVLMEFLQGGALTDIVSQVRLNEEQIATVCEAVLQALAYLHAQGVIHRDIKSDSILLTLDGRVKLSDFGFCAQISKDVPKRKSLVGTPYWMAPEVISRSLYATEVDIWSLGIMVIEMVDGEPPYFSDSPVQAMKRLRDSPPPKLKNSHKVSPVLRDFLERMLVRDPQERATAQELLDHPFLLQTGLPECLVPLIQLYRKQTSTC", "sequence of UniProt Q9Y616 (whole entry, looked up)": "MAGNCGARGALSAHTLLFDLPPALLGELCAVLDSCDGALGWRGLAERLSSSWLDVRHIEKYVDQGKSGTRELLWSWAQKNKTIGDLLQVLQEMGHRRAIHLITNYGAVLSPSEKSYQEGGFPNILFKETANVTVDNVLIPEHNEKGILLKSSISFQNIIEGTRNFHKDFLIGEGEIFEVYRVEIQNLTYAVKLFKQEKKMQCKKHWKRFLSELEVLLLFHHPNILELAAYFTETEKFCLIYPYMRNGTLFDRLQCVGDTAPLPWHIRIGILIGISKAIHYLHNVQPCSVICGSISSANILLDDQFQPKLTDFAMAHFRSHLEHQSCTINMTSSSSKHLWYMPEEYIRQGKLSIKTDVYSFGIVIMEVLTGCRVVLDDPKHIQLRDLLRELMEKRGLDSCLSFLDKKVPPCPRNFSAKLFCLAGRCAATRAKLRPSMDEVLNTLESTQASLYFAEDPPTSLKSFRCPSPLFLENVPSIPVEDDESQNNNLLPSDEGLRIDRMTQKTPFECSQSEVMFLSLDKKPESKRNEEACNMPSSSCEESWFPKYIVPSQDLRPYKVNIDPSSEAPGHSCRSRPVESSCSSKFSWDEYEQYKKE", "sequence of UniProt Q9H422 (whole entry, looked up)": "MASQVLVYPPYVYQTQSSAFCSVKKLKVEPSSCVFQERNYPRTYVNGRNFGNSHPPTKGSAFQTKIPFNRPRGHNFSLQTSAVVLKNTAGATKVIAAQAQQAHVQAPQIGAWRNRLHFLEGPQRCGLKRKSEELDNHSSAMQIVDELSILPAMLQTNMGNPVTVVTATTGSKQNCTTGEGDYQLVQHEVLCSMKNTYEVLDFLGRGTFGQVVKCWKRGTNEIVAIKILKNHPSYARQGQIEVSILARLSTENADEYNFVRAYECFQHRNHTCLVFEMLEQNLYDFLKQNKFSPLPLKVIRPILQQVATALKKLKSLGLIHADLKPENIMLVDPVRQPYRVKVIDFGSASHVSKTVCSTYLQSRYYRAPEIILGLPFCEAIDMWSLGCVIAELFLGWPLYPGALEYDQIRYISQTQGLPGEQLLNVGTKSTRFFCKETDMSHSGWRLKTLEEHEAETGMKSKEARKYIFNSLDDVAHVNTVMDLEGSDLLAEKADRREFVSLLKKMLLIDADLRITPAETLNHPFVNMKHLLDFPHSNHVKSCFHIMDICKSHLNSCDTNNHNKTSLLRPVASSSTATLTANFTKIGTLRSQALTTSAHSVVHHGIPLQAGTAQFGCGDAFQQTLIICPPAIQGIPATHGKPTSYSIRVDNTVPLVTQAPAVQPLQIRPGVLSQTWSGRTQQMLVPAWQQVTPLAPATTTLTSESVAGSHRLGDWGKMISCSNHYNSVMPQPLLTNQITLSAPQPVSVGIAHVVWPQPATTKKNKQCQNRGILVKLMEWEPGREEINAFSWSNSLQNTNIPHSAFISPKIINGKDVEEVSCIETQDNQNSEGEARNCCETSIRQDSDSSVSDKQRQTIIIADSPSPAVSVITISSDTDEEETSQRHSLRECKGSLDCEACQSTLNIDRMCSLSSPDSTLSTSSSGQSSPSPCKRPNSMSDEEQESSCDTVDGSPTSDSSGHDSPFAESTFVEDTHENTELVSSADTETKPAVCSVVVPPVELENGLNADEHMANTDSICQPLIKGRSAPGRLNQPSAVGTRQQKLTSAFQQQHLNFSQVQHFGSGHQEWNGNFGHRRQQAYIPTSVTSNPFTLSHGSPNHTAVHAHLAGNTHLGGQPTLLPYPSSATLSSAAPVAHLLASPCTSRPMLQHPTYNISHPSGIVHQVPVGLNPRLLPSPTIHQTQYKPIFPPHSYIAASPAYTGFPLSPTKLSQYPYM", "sequence of UniProt O60331 (whole entry, looked up)": "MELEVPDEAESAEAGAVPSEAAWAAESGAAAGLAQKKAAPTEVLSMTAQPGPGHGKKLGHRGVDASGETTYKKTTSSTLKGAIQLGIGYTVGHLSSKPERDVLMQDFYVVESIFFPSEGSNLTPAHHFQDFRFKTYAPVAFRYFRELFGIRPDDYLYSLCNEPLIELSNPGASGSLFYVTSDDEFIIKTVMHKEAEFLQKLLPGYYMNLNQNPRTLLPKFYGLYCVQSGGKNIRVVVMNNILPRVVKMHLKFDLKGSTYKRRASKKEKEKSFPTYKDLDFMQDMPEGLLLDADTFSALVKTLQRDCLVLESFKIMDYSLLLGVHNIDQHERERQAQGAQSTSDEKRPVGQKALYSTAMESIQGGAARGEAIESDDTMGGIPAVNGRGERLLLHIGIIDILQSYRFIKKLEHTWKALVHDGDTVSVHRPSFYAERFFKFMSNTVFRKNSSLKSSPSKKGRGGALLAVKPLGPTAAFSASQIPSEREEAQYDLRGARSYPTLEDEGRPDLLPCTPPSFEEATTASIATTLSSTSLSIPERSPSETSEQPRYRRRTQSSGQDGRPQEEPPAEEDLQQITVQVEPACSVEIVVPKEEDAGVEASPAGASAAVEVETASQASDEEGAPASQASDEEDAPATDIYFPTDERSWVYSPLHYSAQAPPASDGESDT"}
{"data": "Sample 1", "target": "Calcium/calmodulin-dependent protein kinase type II subunit alpha (CAMK2A, Homo sapiens, UniProt Q9UQM7)", "observed": "enzyme activity", "action": "inhibitor", "concentration": "10 µM", "sequence of UniProt Q9UQM7 (whole entry, looked up)": "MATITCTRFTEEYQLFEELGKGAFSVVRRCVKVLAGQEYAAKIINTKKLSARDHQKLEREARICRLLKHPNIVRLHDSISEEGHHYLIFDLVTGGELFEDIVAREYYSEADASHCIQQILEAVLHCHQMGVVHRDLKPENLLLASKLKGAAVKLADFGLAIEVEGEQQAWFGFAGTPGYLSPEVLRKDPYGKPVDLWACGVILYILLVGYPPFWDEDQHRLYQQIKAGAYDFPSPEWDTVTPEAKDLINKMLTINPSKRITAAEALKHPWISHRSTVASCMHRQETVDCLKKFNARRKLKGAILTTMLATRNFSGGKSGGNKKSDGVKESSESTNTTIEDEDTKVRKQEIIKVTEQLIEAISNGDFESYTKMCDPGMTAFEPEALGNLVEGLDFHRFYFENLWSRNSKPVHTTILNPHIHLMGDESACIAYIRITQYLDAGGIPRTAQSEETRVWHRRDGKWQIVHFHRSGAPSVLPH"}
{"SMILES": "O=S1(=O)CCN(CN2CCS(=O)(=O)NC2)CN1", "inhibition [%]": -16}
{"SMILES": "COc1cc(CNC(=O)CCCC/C=C/C(C)C)ccc1O[C@@H]1O[C@H](CO)[C@@H](O)[C@H](O)[C@H]1O", "inhibition [%]": -20}
{"SMILES": "C[C@H]1CC[C@@]2(OC1)O[C@H]1C[C@H]3[C@@H]4CC[C@@H]5C[C@@H](O)CC[C@]5(C)[C@H]4CC[C@]3(C)[C@H]1[C@@H]2C", "inhibition [%]": -15}
{"SMILES": "CCCCCCCCCCCCC(=O)OC", "inhibition [%]": -13}
{"SMILES": "C[C@]1(Cn2ccnn2)[C@H](C(=O)O)N2C(=O)C[C@H]2S1(=O)=O", "inhibition [%]": 3}
{"SMILES": "CC(=O)OCC(=O)[C@@]1(O)CC[C@H]2[C@@H]3CCC4=CC(=O)C=C[C@]4(C)[C@@]3(Cl)[C@@H](Cl)C[C@@]21C", "inhibition [%]": -3}
{"SMILES": "CC(C)=CCc1cc([C@@H]2CC(=O)c3ccc(O)c(CC=C(C)C)c3O2)ccc1O", "inhibition [%]": -12}
{"data": "Sample 2", "cell line": "mouse MPNST tumor cells", "technique": "high-content nuclear imaging", "measured": "cell number", "concentration": "10 µM", "time": "12 h", "notes": "mean of 2 replicates", "reference": "plate mean", "reading": "higher = more cells"}
{"Structure (SMILES)": "CC1(C)O[C@@H]2C[C@H]3[C@@H]4CCC5=CC(=O)C=C[C@]5(C)[C@H]4[C@@H](O)C[C@]3(C)[C@]2(C(=O)CO)O1", "nuclei count": "4.03 z-score"}
{"Structure (SMILES)": "Cc1nc2ccccn2c(=O)c1CCN1CCC(C(=O)c2ccc(F)cc2)CC1", "nuclei count": "1.58 z-score"}
{"Structure (SMILES)": "COc1ccc(CNc2nc(N(CCO)CCO)nc3c2ncn3C(C)C)cc1", "nuclei count": "1.33 z-score"}
{"Structure (SMILES)": "NCCc1ccc(O)c(O)c1", "nuclei count": "0.873 z-score and 5.69 z-score"}
{"Structure (SMILES)": "CN[C@H](CC(C)C)C(=O)N[C@H]1C(=O)N[C@@H](CC(N)=O)C(=O)N[C@H]2C(=O)N[C@H]3C(=O)N[C@H](C(=O)N[C@H](C(=O)O)c4cc(O)cc(O)c4-c4cc3ccc4O)[C@H](O)c3ccc(c(Cl)c3)Oc3cc2cc(c3O[C@@H]2O[C@H](CO)[C@@H](O)[C@H](O)[C@H]2O[C@H]2C[C@](C)(N)[C@H](O)[C@H](C)O2)Oc2ccc(cc2Cl)[C@H]1O", "nuclei count": "1.28 z-score"}
{"Structure (SMILES)": "COCC[n+]1c2c(n(Cc3cnccn3)c1C)C(=O)c1ccccc1C2=O", "nuclei count": "-3.99 z-score"}
{"Structure (SMILES)": "OCCN1C[C@H](O)[C@@H](O)[C@H](O)[C@H]1CO", "nuclei count": "0.558 z-score and 0.314 z-score and -0.619 z-score"}
{"Structure (SMILES)": "Cc1nc(Nc2ccc(F)cc2)sc1C(=O)c1ccsc1", "nuclei count": "2.83 z-score"}
{"Structure (SMILES)": "Cc1ccc(-c2ncc(Cl)cc2-c2ccc(S(C)(=O)=O)cc2)cn1", "nuclei count": "1.22 z-score"}
{"data": "Sample 3", "SMILES": "O=C(Nc1cnn(-c2csc(C(=O)NC3COC3)c2)c1)Nc1c(F)cccc1Cl", "observed": "enzyme activity", "concentration": "5 µM", "reference": "untreated control"}
{"target": "Tyrosine-protein kinase Fes/Fps (FES, Homo sapiens, UniProt P07332)", "remaining activity [%]": 83.9}
{"target": "Cyclin-dependent kinase 2, with cyclin O (CDK2, Homo sapiens, UniProt P24941)", "remaining activity [%]": 93.5}
{"target": "Serine/threonine-protein kinase PAK 6 (PAK6, Homo sapiens, UniProt Q9NQU5)", "remaining activity [%]": 88.3}
{"target": "Homeodomain-interacting protein kinase 4 (HIPK4, Homo sapiens, UniProt Q8NE63)", "remaining activity [%]": 104}
{"target": "Mitogen-activated protein kinase kinase kinase kinase 1 (MAP4K1, Homo sapiens, UniProt Q92918)", "remaining activity [%]": 89.1}
{"data": "Sample 4", "Compound": "CO[C@@H](C)c1c(Nc2ccc([C@@H](N(C)C(=O)C3CCS(=O)(=O)CC3)C(F)(F)F)cc2)cnc2cc(Cl)nn12", "observed": "cell-free assay", "technique": "competition with immobilised ligand", "concentration": "1 µM"}
{"target": "Serine/threonine-protein kinase MAK (MAK, Homo sapiens, UniProt P20794)", "remaining binding [%]": 100}
{"target": "Interleukin-1 receptor-associated kinase 3 (IRAK3, Homo sapiens, UniProt Q9Y616)", "remaining binding [%]": 86}
{"target": "Activin receptor type-1B (ACVR1B, Homo sapiens, UniProt P36896)", "remaining binding [%]": 100}
{"target": "Casein kinase I isoform alpha-like (CSNK1A1L, Homo sapiens, UniProt Q8N752)", "remaining binding [%]": 84}
{"target": "Mitogen-activated protein kinase 7 (MAPK7, Homo sapiens, UniProt Q13164)", "remaining binding [%]": 100}
{"target": "Receptor-interacting serine/threonine-protein kinase 4 (RIPK4, Homo sapiens, UniProt P57078)", "remaining binding [%]": 100}
{"target": "Casein kinase II subunit alpha (CSNK2A1, Homo sapiens, UniProt P68400)", "remaining binding [%]": 100}
{"target": "Serine/threonine-protein kinase 38 (STK38, Homo sapiens, UniProt Q15208)", "remaining binding [%]": 88}
{"target": "Mitogen-activated protein kinase kinase kinase 3 (MAP3K3, Homo sapiens, UniProt Q99759)", "remaining binding [%]": 100}
{"target": "Epidermal growth factor receptor (EGFR, Homo sapiens, UniProt P00533, del747-750/T751S)", "remaining binding [%]": 90}
{"target": "Tyrosine-protein kinase ABL1, non-phosphorylated (ABL1, Homo sapiens, UniProt P00519)", "remaining binding [%]": 74}
{"target": "Phosphatidylinositol 4-phosphate 5-kinase type-1 gamma (PIP5K1C, Homo sapiens, UniProt O60331)", "remaining binding [%]": 100}
{"target": "Homeodomain-interacting protein kinase 3 (HIPK3, Homo sapiens, UniProt Q9H422)", "remaining binding [%]": 100}
{"target": "Serine/threonine-protein kinase Nek2 (NEK2, Homo sapiens, UniProt P51955)", "remaining binding [%]": 94}
{"note": "For quick reference, copied from above (sample 4):"}
{"target": "Mitogen-activated protein kinase kinase kinase 3 (MAP3K3, Homo sapiens, UniProt Q99759)", "remaining binding [%]": 100}
{"target": "Epidermal growth factor receptor (EGFR, Homo sapiens, UniProt P00533, del747-750/T751S)", "remaining binding [%]": 90}
{"target": "Tyrosine-protein kinase ABL1, non-phosphorylated (ABL1, Homo sapiens, UniProt P00519)", "remaining binding [%]": 74}
